# Measured values collected from several papers.
# “And” joins repeats or separate records; there may be more than shown. ± marks the error that the study gave.
Compound,target or system,test,test system,conditions,scale,endpoint,result
CC(C)C[C@@H](NC(=O)CNC(=O)[C@@H](CCCCN)NC(=O)[C@@H](CC(C)C)NC(=O)[C@@H](CCCCN)NC(=O)[C@@H](CCCNC(=N)N)NC(=O)[C@@H](CC(C)C)NC(=O)[C@@H](CC(C)C)NC(=O)[C@@H](CCCNC(=N)N)NC(=O)[C@H](N)CCCNC(=N)N)C(=O)N[C@H](CCCCN)C(=O)N[C@H](CCCCN)C(=O)N[C@H](Cc1ccc(O)cc1)C(=O)N[C@H](CC(C)C)C(=O)N[C@H](Cc1ccc(O)cc1)C(=O)N[C@H](Cc1ccccc1)C(=O)N[C@H](CCCCN)C(=O)N[C@H](CC(C)C)C(=O)N[C@H](CCC(N)=O)C(=O)N[C@H](CC(C)C)C(=O)N[C@H](CC(C)C)C(=O)N[C@H](CCCCN)C(=O)N[C@H](CCCCN)C(N)=O,Escherichia coli O111:B4 LPS,,,"4 µM, pH 7.4, with: LPS 25 µg/mL",,BODIPY-TR-cadaverine displacement,70.5%
COc1cccc(C(=O)NN(C(=O)c2cc(C)cc(C)c2)C(C)(C)C)c1C,Anopheles funestus,,"FUMOZ, resistant","tarsal contact, dose not given, no blood meal, without RME",reference: control,lifespan,no effect
C=CCN1CC[C@]23c4c5ccc(O)c4O[C@H]2C(=O)CC[C@@]3(O)[C@H]1C5,,tail-flick test,male ICR-CD1 mice,"subcutaneous, 5 mg/kg, 30 min",,% MPE,10.6% and -9.86% and -10.1% and 11.3% and -36.4% and 5.34%
CCCCCCCCCCCCCCCC[N+](C)(C)CCCCCCCCCCCC[N+](C)(C)CCCCCCCCCCCCCCCC.[Br-].[Br-],influenza A virus A/PR/8/34 (H1N1),,,"concentration not given, post-treatment",,HA titre reduction,1.5 ± 0.5 log units
CCNCCc1c[nH]c2cccc(O)c12.CCNCCc1c[nH]c2cccc(O)c12.O=C(O)CCC(=O)O,,,C57BL/6J mice,"subcutaneous, 10 mg/kg",,head twitch response,31.2 ± 4.5 count/30 min
COc1c(CCC[P+](c2ccccc2)(c2ccccc2)c2ccccc2)cc2c(c1OC)OCO2.[I-],NCI-H522,SRB,,,,GI50,-5.76 log M
CCCCCCCCCCCC[N+](C)(C)CCCCCC[N+](C)(C)CCCCCCCCCCCC.[Br-].[Br-],influenza A virus A/PR/8/34 (H1N1),,,"concentration not given, co-treatment",,protection,58.1 ± 5.9%
CCCCC1(CCCC)CN(c2ccccc2)c2cc(SC)c(OCC(=O)N[C@@H](C(=O)NCC(=O)O)c3ccccc3)cc2S(=O)(=O)C1,,refers to: LDL cholesterol,"human, serum","2.5 mg once daily, day 13",,serum LDL-C,101 mg/dL
C[C@H]1O[C@@H](O[C@H]2CC[C@@]3(C)[C@@H](CC[C@]4(C)[C@@H]3C=C[C@]35OC[C@@]6(CCC(C)(C)C[C@H]63)[C@@H](O)C[C@]54C)[C@]2(C)CO)[C@H](O)[C@@H](O[C@@H]2O[C@H](CO)[C@@H](O)[C@H](O)[C@H]2O)[C@H]1O,,histology,"hepatic SIRT1 knockdown mice, liver","dose not given, high dose, with: chronic-plus-binge ethanol",,Oil Red O area,0.249% and 0.261% and 0.255%
COc1cc(NC(=O)Cn2ccc3cc(F)c(-c4cnn(C)c4)cc32)cc(OC)c1OC,Plasmodium falciparum,parasite growth,Dd2-B2 PfATP4 V178I recrudescent,,,IC90,1240 nM
CC(C)NCCc1c[nH]c2cccc(O)c12.O=C(O)/C=C/C(=O)O,,,C57BL/6J mice,"subcutaneous, 0.1 mg/kg",,head twitch count,5.5 ± 0.9
CC(C)N1CCC(NC2CCN(c3cccc(-c4cc5cc(F)ccc5[nH]4)c3)CC2)CC1,NCI-H322M,,,,,GI50,1630 nM
O=C(O)/C=C/C(=O)O.Oc1cccc2[nH]cc(CCNC3CCCCC3)c12,,,C57BL/6J mice,"subcutaneous, 0.03 mg/kg, 30 min",,distance travelled,3010 ± 259 cm
CC[C@H](C)[C@H](NC(=O)[C@H](C)NC(=O)[C@H](CCCCN)NC(=O)[C@H](CC(C)C)NC(=O)[C@H](C)NC(=O)[C@@H](NC(=O)[C@H](Cc1c[nH]cn1)NC(=O)[C@H](CC(C)C)NC(=O)[C@@H](NC(=O)[C@@H](NC(=O)[C@H](CCCCN)NC(=O)[C@H](C)NC(=O)[C@H](C)NC(=O)[C@H](CO)NC(=O)[C@H](CCCCN)NC(=O)[C@H](Cc1ccccc1)NC(=O)[C@@H](NC(=O)[C@H](CCCCN)NC(=O)[C@H](CC(C)C)NC(=O)[C@H](Cc1ccccc1)NC(=O)[C@H](CO)NC(=O)[C@H](CCCCN)NC(=O)[C@H](Cc1c[nH]c2ccccc12)NC(=O)[C@H](CCCCN)NC(C)=O)[C@@H](C)O)[C@@H](C)O)C(C)C)[C@@H](C)O)C(=O)N[C@@H](CO)C(=O)N[C@@H](CO)C(N)=O,Pseudomonas aeruginosa,,ATCC 27853,,,MBC50,8 µg/mL
CCCCCCCCCCCC[N+](C)(C)CCCNCCC[N+](C)(C)CCCCCCCCCCCC.[Br-].[Br-],influenza A virus A/PR/8/34 (H1N1),,,"concentration not given, post-treatment",,HA titre reduction,2 ± 1 log units
CC(C)(C)NCCc1c[nH]c2cccc(O)c12.CC(C)(C)NCCc1c[nH]c2cccc(O)c12.O=C(O)/C=C/C(=O)O,,,C57BL/6J mice,"subcutaneous, 3 mg/kg",,head twitch count,8.5 ± 1.9
COc1cc(CCC[P+](c2ccccc2)(c2ccccc2)c2ccccc2)c(OC)c2c1OCO2.[I-],LOX IMVI,SRB,,,,Log10GI50,-5.61 log M
CCCCNCCc1c[nH]c2cccc(O)c12.O=C(O)/C=C/C(=O)O,,,C57BL/6J mice,"subcutaneous, 1 mg/kg",,head twitch count,7.5 ± 1.6
CC[C@H](C)[C@@H]1NC(=O)[C@@H]2CCCN2C(=O)[C@H](CC(C)C)NC(=O)[C@H](CC(C)C)NC(=O)CNC(=O)[C@@H](NC(=O)[C@@H](NC(=O)[C@H](CC(=O)O)NC(=O)CNC(=O)[C@@H](NC(=O)[C@H](C)NC(=O)CNC(=O)[C@H](CCCCN)NC(=O)[C@H](CC(C)C)NC(=O)[C@H](CC(C)C)NC(=O)[C@H](CCCCN)NC(=O)CNC(=O)[C@@H](NC(=O)[C@@H](N)CC(C)C)C(C)C)C(C)C)C(C)C)CSSC[C@@H](C(=O)O)NC1=O,,"RNA-seq, refers to: Gimap3 mRNA","mouse traumatic brain injury, frontal cortex and hippocampus",dose not given,reference: TBI plus compound vs TBI,log2 fold change,-1.87
C=CCNCCc1c[nH]c2cccc(O)c12.C=CCNCCc1c[nH]c2cccc(O)c12.O=C(O)/C=C/C(=O)O,,,C57BL/6J mice,"subcutaneous, 30 mg/kg",,head twitch count,31 ± 6.8
CCCCCCCCCCCC[N+](C)(C)CCOCC[N+](C)(C)CCCCCCCCCCCC.[Br-].[Br-],influenza A virus A/PR/8/34 (H1N1),,,"concentration not given, co-treatment",,HA titre reduction,6 ± 1 log units
CCCNCCc1c[nH]c2cccc(O)c12.CCCNCCc1c[nH]c2cccc(O)c12.O=C(O)/C=C/C(=O)O,,,C57BL/6J mice,"subcutaneous, 30 mg/kg",,head twitch count,24.2 ± 3.3
CN1CCN(S(=O)(=O)c2cc([N+](=O)[O-])ccc2N(CCOS(C)(=O)=O)CCOS(C)(=O)=O)CC1,,,"NSG mice, sample DC PDX","intraperitoneal, 25 mg/kg weekly x3",reference: vehicle,EFS delay (T-C),> 47.7 days

# Some of these lines once more:
Compound,target or system,test,test system,conditions,scale,endpoint,result
CC[C@H](C)[C@@H]1NC(=O)[C@@H]2CCCN2C(=O)[C@H](CC(C)C)NC(=O)[C@H](CC(C)C)NC(=O)CNC(=O)[C@@H](NC(=O)[C@@H](NC(=O)[C@H](CC(=O)O)NC(=O)CNC(=O)[C@@H](NC(=O)[C@H](C)NC(=O)CNC(=O)[C@H](CCCCN)NC(=O)[C@H](CC(C)C)NC(=O)[C@H](CC(C)C)NC(=O)[C@H](CCCCN)NC(=O)CNC(=O)[C@@H](NC(=O)[C@@H](N)CC(C)C)C(C)C)C(C)C)C(C)C)CSSC[C@@H](C(=O)O)NC1=O,,"RNA-seq, refers to: Gimap3 mRNA","mouse traumatic brain injury, frontal cortex and hippocampus",dose not given,reference: TBI plus compound vs TBI,log2 fold change,-1.87
CCCCC1(CCCC)CN(c2ccccc2)c2cc(SC)c(OCC(=O)N[C@@H](C(=O)NCC(=O)O)c3ccccc3)cc2S(=O)(=O)C1,,refers to: LDL cholesterol,"human, serum","2.5 mg once daily, day 13",,serum LDL-C,101 mg/dL
COc1cccc(C(=O)NN(C(=O)c2cc(C)cc(C)c2)C(C)(C)C)c1C,Anopheles funestus,,"FUMOZ, resistant","tarsal contact, dose not given, no blood meal, without RME",reference: control,lifespan,no effect
